Experimental data of several laboratories.
Parts stem from different laboratories: compare values within a part only. “And” joins repeats or separate records; there may be more than shown.
UniProt Q9NYY3, sequence (whole entry, looked up): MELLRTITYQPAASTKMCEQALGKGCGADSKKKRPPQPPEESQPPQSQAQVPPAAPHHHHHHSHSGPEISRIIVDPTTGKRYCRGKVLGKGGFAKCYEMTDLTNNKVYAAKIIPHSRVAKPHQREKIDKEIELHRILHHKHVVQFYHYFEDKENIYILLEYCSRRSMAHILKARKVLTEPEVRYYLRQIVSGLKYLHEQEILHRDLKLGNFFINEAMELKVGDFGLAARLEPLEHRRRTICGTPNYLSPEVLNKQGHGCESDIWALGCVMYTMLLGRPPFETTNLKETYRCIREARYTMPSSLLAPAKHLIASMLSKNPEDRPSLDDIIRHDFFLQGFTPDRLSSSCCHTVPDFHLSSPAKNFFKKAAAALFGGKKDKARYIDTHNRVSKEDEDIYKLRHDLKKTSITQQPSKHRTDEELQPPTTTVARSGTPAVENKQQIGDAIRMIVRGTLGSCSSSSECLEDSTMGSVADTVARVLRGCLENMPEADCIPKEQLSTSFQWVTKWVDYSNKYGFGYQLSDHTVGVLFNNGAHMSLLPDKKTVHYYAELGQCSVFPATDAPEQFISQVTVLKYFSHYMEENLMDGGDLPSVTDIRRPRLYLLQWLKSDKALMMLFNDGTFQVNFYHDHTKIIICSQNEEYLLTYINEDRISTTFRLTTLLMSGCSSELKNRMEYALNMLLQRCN
UniProt P35372, sequence (whole entry, looked up): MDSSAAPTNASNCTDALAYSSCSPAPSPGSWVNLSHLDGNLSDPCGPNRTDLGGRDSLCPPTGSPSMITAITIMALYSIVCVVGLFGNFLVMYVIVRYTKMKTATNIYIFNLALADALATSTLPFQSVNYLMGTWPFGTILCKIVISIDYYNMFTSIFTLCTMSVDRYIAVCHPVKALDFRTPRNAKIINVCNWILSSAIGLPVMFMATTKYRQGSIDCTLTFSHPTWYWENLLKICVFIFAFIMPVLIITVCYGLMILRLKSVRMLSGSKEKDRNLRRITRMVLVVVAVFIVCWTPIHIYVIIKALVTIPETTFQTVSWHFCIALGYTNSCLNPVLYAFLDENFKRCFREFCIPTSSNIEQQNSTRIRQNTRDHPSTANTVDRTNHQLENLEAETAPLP
UniProt P35968, sequence (whole entry, looked up): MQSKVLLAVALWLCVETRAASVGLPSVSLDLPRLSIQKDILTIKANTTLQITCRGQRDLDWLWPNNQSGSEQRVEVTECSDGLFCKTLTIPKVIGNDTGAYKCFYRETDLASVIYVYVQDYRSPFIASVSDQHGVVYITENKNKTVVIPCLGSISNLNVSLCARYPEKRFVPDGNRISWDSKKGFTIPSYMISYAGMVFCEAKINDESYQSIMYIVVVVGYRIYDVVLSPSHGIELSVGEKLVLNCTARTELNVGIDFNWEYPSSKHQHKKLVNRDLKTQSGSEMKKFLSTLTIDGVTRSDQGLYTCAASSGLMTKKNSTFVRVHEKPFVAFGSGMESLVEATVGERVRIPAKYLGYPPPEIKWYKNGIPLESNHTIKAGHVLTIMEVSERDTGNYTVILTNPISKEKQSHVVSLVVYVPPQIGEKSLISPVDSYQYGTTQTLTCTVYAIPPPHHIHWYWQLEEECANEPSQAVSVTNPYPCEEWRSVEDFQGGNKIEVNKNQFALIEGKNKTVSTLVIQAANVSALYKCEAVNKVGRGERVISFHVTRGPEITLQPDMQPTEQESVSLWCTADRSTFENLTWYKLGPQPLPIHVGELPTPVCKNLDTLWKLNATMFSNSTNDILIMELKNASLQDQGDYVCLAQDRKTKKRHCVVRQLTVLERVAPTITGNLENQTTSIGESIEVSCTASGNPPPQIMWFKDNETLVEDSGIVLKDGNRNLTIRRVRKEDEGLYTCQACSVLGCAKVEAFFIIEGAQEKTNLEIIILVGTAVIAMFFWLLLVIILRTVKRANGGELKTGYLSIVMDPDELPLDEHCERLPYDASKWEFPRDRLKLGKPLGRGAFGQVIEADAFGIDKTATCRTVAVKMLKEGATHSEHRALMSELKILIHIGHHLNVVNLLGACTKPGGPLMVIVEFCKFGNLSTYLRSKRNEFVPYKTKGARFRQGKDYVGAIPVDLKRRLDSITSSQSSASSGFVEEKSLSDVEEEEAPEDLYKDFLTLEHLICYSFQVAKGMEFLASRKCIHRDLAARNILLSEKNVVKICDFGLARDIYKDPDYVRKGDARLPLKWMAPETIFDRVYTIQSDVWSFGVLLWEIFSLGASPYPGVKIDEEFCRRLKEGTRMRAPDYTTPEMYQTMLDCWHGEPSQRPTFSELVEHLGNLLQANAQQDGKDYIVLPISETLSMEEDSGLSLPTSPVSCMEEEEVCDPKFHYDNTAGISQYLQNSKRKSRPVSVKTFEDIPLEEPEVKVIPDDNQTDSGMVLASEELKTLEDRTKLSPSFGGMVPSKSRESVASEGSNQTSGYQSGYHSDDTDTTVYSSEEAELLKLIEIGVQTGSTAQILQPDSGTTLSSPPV
UniProt O43353, sequence (whole entry, looked up): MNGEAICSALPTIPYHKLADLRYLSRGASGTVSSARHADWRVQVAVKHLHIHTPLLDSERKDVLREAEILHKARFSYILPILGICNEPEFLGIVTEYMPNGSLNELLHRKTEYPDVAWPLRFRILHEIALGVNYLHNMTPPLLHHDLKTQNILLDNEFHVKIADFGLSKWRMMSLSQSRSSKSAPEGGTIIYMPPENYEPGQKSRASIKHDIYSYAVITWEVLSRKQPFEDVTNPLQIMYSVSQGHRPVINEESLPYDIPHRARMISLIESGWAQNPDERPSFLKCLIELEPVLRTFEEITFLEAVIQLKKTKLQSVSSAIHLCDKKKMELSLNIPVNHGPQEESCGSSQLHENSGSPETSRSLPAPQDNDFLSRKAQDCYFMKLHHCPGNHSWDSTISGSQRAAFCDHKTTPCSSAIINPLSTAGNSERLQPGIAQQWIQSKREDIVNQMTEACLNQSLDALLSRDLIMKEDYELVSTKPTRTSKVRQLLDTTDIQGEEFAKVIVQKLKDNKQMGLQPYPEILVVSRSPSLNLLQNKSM
UniProt Q8N5S9, sequence (whole entry, looked up): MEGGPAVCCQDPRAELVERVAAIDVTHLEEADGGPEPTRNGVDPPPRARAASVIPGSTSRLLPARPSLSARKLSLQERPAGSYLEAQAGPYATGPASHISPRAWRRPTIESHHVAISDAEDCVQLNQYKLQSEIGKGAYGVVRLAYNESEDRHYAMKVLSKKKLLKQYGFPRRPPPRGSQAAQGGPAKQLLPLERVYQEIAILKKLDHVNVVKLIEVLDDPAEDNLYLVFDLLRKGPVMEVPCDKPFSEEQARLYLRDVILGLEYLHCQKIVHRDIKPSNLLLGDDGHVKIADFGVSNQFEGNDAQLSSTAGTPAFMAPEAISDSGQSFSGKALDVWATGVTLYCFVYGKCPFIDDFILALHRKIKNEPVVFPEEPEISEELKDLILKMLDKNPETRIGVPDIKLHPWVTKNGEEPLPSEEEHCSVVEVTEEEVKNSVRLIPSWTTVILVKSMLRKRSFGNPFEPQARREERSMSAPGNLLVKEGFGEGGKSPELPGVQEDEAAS
UniProt Q9HBY8, sequence (whole entry, looked up): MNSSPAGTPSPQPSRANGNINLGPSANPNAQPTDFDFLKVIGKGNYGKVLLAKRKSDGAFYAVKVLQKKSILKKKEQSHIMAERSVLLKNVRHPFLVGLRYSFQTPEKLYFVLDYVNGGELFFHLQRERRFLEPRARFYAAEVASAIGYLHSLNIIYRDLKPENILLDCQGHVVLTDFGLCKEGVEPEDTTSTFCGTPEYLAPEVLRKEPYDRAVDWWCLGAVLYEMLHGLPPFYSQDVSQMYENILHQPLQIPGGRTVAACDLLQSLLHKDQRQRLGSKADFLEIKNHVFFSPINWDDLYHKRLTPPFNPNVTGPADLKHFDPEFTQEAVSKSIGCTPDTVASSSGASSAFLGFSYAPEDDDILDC
UniProt Q8N568, sequence (whole entry, looked up): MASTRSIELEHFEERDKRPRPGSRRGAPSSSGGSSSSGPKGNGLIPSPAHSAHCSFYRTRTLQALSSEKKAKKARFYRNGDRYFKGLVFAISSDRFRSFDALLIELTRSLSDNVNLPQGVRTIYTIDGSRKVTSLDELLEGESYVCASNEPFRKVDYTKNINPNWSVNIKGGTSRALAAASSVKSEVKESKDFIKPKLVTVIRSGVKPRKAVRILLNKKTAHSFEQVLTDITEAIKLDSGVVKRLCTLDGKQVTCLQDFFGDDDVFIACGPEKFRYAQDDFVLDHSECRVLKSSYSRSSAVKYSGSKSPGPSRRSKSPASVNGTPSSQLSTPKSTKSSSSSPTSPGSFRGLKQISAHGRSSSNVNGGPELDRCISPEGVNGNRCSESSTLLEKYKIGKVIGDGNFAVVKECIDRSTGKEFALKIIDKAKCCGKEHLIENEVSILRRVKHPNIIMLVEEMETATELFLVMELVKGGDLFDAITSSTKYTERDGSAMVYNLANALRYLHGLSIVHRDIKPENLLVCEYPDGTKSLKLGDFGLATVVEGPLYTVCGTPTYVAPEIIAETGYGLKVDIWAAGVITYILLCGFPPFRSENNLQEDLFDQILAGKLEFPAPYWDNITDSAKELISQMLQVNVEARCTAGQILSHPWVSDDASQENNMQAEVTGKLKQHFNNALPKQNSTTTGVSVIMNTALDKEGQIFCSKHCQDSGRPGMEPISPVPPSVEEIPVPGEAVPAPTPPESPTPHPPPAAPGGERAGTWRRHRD
UniProt Q00526, sequence (whole entry, looked up): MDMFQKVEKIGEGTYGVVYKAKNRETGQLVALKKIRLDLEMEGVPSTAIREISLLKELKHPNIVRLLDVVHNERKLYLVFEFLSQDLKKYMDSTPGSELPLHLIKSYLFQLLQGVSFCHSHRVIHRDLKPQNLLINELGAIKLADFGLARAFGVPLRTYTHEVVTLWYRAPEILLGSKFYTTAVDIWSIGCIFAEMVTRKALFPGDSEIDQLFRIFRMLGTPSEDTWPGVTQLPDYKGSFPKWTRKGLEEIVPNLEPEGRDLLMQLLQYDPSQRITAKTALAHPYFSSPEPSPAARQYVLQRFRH

Sample 1 — organism: Sarcocystis neurona; read-out: parasite growth; tested at: 10 µM; setting: second screen; relative to: untreated
For CC(C)(C)NCC(O)c1ccc(O)c(CO)c1.CC(C)(C)NCC(O)c1ccc(O)c(CO)c1.O=S(=O)(O)O (stereo not shown), “log2 fold change” read 0.4.
For Nc1ncnc2c1ncn2[C@@H]1O[C@H](CO)C[C@H]1O, “log2 fold change” read 0.29.
Nc1ncn([C@@H]2O[C@H](CO)[C@@H](O)[C@H]2O)c(=O)n1 — result for “log2 fold change”: 0.47.
For CCCN[C@H]1CCc2nc(N)sc2C1.Cl, “log2 fold change” read 0.73.
CN[C@@H]1[C@H](O)[C@H](NC)[C@H]2O[C@@]3(O)C(=O)C[C@@H](C)O[C@H]3O[C@@H]2[C@H]1O.Cl.Cl — result for “log2 fold change”: 0.39.
CNCCC(Oc1ccc(C(F)(F)F)cc1)c1ccccc1.Cl (stereo not shown): “log2 fold change” 0.39.
For COc1cc(C[C@@H](CO)[C@H](CO)Cc2ccc(O)c(OC)c2)ccc1O, “log2 fold change” read 0.15.
Cl.Nc1nc2ccc(OC(F)(F)F)cc2s1: “log2 fold change” 2.15.

Sample 2
SMILES: CC(C)S(=O)(=O)c1ccc2nccc(Nc3ccc4sc(C5CCCC5)nc4c3)c2c1
For L929 RIPK3 knockout; cell viability; without zVAD, 10% FBS: CC50 read 60.8 µM.
It gave 59 µM for CC50 (L929 RIPK3 knockout; cell viability; without zVAD, 10% FBS, mean of 3).
The CC50 was 52.8 µM and 53.4 µM (L929; cell viability, CCK-8; without zVAD, 10% FBS).
It gave 58.6 µM and 60 µM for CC50 (CCK-8; L929 RIPK3 knockout, mouse; MEM with 10% FBS, together with: zVAD).
L929; cell growth or viability, CCK-8 — CC50: 53.3 µM.

Sample 3 — read-out: enzyme activity; tested at: 5 µM; relative to: untreated control
SMILES: O=C(Nc1cnn(-c2csc(C(=O)NC3COC3)c2)c1)Nc1ccccc1Cl
It gave 94.5% for remaining activity (CAMK2G (Homo sapiens, UniProt Q13555)).
PLK2 (Homo sapiens, UniProt Q9NYY3) — remaining activity: 85.3%.
SGK2 (Homo sapiens, UniProt Q9HBY8) — remaining activity: 100%.
KDR (Homo sapiens, UniProt P35968) — remaining activity: 94.6%.
For CAMKK1 (Homo sapiens, UniProt Q8N5S9): remaining activity read 129%.
The remaining activity was 114% (RIPK2 (Homo sapiens, UniProt O43353)).
DCLK2 (Homo sapiens, UniProt Q8N568) — remaining activity: 97.5%.
Cyclin-dependent kinase 3, with cyclin E2 (CDK3, Homo sapiens, UniProt Q00526) — remaining activity: 95.2%.

Mixed results
The inhibition of CS(=O)(=O)N1CCCC(NC(=O)[C@H](CCC2CCCCC2)NC(=O)c2ccc(CNC(=O)c3cnc4ccccn34)cc2)C1 (stereo partly shown) is reported as 45.3% (Mu-type opioid receptor (OPRM1, Homo sapiens, UniProt P35372); ligand displacement; 10 µM).

A few entries again (sample 2):
The CC50 was 52.8 µM and 53.4 µM (L929; cell viability, CCK-8; without zVAD, 10% FBS).
It gave 58.6 µM and 60 µM for CC50 (CCK-8; L929 RIPK3 knockout, mouse; MEM with 10% FBS, together with: zVAD).
